# Published values collected from several papers.
# Parts stem from different laboratories: compare values within a part only. Positions count from the first letter of the parent shown.

# Sample 1
# Target: Histone acetyltransferase KAT6A, winged helix 2, GST fusion (KAT6A, Homo sapiens, UniProt Q92794, residues 85-181)
# Technique: protein binding microarray
# Molecule type: double-stranded DNA, one strand shown
# Medium: in vitro
# Tested at: not given
# Setting: 8-mer, flanks averaged, mean of 2 arrays, mostly near background
# Reference: not given
# Direction: higher = stronger binding
# Target sequence (chain): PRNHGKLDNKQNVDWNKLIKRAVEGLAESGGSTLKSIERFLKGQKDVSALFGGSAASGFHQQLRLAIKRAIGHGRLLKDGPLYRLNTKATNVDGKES
Oligonucleotide,E-score
CGTTCTGC,0.0706
GAATAAAA,-0.00679
TGCGCTAA,-0.0416
CGATCCCC,-0.0424
ATCTGTTG,-0.04
AAAAGCTA,-0.0777
AACAGCGG,-0.0362
ATACATGG,-0.101
CGCTCATA,-0.141
CAATCTAC,-0.0836
ATTATCGG,-0.0103
CAACACGA,0.000985
CTATGCGC,0.0615

# Sample 2
# Target: CCNB3, cyclin fold, Cln2 fusion (human)
# Technique: yeast growth competition, sequencing
# Medium: yeast
# Setting: weak parent motif
# Reference: not given
# Direction: higher = stronger binding
# Starting sequence: CDKN1A docking peptide (human); SKACRRLFGPVDS; partner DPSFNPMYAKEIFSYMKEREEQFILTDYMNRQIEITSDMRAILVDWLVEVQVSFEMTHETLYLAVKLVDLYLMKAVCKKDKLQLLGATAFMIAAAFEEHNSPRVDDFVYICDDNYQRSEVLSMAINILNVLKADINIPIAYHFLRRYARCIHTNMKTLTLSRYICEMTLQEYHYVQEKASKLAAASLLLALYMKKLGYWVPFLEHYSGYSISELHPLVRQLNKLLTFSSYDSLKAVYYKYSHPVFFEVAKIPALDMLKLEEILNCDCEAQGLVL
Substitution,normalised enrichment score
SKACRRLFQPVDS [G9Q],0.552
SKACIRLFGPVDS [R5I],0.196
STACRRLFGPVDS [K2T],0.72
SKACRRLFWPVDS [G9W],0.64
SKACKRLLGPVDS [R5K F8L],0.0842
SKACRALFGPVDS [R6A],0.119
SIACRRLFGPVDS [K2I],0.437
SKACRRLFHPVDS [G9H],0.499
SKACGRLFGPVDS [R5G],0.274
SNACRRLFGPVDS [K2N],0.703
SKACRRCFGPVDS [L7C],0.283
SKACRELFGPVDS [R6E],-0.0363
SKACRRLFGPVAS [D12A],0.422
SKACRRLVGPVDS [F8V],0.0923
SKACRRLFGQVDS [P10Q],0.0699

# Sample 3
# Target: ABI1, truncated, D143A, DHFR fusion (Arabidopsis thaliana)
# Technique: DHFR PCA, deep sequencing
# Medium: yeast
# Setting: methotrexate growth selection, single substitutions
# Added: (+)-ABA 0.0091 µM
# Reference: wild-type fitted maximum
# Direction: higher = stronger binding
# Starting sequence: PYL1, truncated, DHFR fusion (Arabidopsis thaliana); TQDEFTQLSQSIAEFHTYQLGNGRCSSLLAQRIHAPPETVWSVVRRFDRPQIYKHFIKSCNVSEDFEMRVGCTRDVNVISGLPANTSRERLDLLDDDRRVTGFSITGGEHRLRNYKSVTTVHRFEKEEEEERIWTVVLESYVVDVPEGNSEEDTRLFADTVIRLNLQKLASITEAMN
Substitution,relative binding score [%]
S140F,1.31
Q167A,23.7
T6V,34.8
K168F,1.71
F47V,-4.68
R163T,15.6
A175Y,1.99
L82A,5.82
V78L,74.3
P50F,-11.7
G148Q,-6.6
E89Y,7.69
S9G,20.6
T101L,73.9

# Sample 4
# Target: Sal-like protein 4, full length isoform B (SALL4, Homo sapiens, UniProt Q9UJQ4-2, residues 1-616)
# Technique: universal PBM
# Molecule type: double-stranded DNA, one strand shown
# Medium: in vitro
# Tested at: not given
# Setting: 8-mer, flanks averaged, mean of replicates
# Direction: higher = stronger binding
Oligonucleotide,E-score
CTGCCGCC,-0.4
AAGTCTGT,0.141
AGCAATTA,0.226
ACCATTCT,0.0114
ACTACAGG,-0.0345
CATTAAAG,0.152
CTTAGCTC,-0.316
ATGCCCCG,-0.264
CCATCGGA,-0.278
CGATATAG,0.128
AGGCTAAG,-0.197
TTAACGAA,0.174
GAAGTCGC,-0.237
CCCATCGA,-0.0779
ATGCGAAA,0.227
CGGGAAAA,-0.121
AGATCGGG,-0.161
GATATAGC,0.242
AGAAACAC,0.0479
CAGTTTGC,-0.139
ACTCGTCG,-0.154
GAATGCAC,-0.0473
ATACCAGC,-0.0614

# Sample 5
# Target: Prothrombin, mature alpha-thrombin (F2, Homo sapiens, UniProt P00734)
# Technique: aptamer microarray, sandwich
# Molecule type: DNA with 2'F-ANA
# Medium: in vitro
# Tested at: 200 nM
# Setting: whole 15-mer aptamer, many near background
# Added: Cy3 exosite-II aptamer, 400 nM
# Direction: higher = stronger binding
# Oligonucleotide: GGTTGGTGTGGTTGG
Modification,mean fluorescence intensity [a.u.]
2'F-ANA at 3 4 5 7 10 13 15,49.3
2'F-ANA at 1 3 6 7 8 11 13 14,90.4
2'F-ANA at 2 7 10 13,128
2'F-ANA at 1 3 5 7 8 10 12 13,49.1
2'F-ANA at 1 7 9 10 15,55.3
2'F-ANA at 3 4 7 8 9 10 14 15,242
2'F-ANA at 5 8 9 11 12 15,135
2'F-ANA at 1 2 3 4 7 9 11 12 14,69.4
2'F-ANA at 3 4 6 9 13 14,216
2'F-ANA at 1 3 4 5 6 11,54.9
2'F-ANA at 1 3 4 6 10 12 14 15,76.8
2'F-ANA at 6 7 10 11 12,205
2'F-ANA at 1 3 4 5 10 11 12 13,47.7
2'F-ANA at 1 2 3 7 8 9 12 14,116
2'F-ANA at 1 2 3 5 6 7 10 11 12 13 15,72.4
2'F-ANA at 2 6 9 11 14,109
2'F-ANA at 2 4 6 7 8 9 10 11 12 13 14,63.3
2'F-ANA at 3 5 7 8 10 11 14 15,48.5
2'F-ANA at 1 2 4 5 14 15,44.8
2'F-ANA at 1 6 11 12 13,262
2'F-ANA at 1 3 8 9 12 13 15,424

# Other studies, line by line
Molecule,target,test,system,conditions,scale,endpoint,result
"PhoQ, residues 284 288 289 292 302 303 SLANIV","PhoP, residues 12 14 15 18 19 LHHVQ (Escherichia coli, UniProt P23836)","Sort-seq, item: YFP reporter",E. coli,"PhoQ-PhoP variant library, added: 10 µM Mg2+","reference: high Mg2+ state, higher = stronger signaling",fold induction,1.06

# Some of these lines once more (sample 2):
Substitution,normalised enrichment score
SKACIRLFGPVDS [R5I],0.196
STACRRLFGPVDS [K2T],0.72
SKACRRLFWPVDS [G9W],0.64
SKACKRLLGPVDS [R5K F8L],0.0842
SKACRALFGPVDS [R6A],0.119
SIACRRLFGPVDS [K2I],0.437
SKACRRLFHPVDS [G9H],0.499
SKACGRLFGPVDS [R5G],0.274
